Measured values collected from several papers.
Every numbered part comes from another study and shows a few of its results, in no order.
Chain of UniProt Q8TF76 (whole entry, looked up): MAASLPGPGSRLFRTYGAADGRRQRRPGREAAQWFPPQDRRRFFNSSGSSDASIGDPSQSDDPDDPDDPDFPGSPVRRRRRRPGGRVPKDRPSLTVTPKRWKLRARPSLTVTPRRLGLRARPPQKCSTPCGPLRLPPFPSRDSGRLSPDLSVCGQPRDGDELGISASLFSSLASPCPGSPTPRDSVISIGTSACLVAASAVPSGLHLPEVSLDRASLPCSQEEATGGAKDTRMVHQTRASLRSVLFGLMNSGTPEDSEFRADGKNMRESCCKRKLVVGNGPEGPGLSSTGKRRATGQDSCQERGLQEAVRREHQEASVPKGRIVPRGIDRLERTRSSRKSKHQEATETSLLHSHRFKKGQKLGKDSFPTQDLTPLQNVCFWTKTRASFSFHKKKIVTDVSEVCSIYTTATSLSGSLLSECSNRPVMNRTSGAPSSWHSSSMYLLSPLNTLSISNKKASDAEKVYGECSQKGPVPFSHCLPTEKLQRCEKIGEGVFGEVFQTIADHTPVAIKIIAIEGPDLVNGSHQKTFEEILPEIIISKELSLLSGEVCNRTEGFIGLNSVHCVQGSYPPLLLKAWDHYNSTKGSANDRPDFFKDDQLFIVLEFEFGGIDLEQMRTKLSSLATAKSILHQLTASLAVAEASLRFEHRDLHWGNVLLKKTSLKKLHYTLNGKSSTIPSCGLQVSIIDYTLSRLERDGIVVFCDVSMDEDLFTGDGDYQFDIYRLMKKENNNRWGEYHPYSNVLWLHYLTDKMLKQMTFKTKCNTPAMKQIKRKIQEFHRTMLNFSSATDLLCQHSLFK
Chain of UniProt P08631 (whole entry, looked up): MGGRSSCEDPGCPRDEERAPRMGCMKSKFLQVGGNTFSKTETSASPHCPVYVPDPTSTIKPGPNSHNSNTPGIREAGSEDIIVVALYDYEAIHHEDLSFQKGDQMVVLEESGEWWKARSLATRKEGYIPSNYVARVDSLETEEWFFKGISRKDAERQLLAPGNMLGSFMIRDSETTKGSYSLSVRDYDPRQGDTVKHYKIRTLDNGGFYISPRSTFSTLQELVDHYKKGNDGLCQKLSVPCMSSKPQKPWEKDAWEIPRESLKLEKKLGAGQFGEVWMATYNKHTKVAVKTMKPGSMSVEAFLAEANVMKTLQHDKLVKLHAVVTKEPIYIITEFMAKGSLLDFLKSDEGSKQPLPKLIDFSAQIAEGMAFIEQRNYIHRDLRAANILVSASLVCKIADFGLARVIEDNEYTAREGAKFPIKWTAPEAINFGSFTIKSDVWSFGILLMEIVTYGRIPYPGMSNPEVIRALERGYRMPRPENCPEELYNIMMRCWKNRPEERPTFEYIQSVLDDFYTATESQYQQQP
Chain of UniProt Q15349 (whole entry, looked up): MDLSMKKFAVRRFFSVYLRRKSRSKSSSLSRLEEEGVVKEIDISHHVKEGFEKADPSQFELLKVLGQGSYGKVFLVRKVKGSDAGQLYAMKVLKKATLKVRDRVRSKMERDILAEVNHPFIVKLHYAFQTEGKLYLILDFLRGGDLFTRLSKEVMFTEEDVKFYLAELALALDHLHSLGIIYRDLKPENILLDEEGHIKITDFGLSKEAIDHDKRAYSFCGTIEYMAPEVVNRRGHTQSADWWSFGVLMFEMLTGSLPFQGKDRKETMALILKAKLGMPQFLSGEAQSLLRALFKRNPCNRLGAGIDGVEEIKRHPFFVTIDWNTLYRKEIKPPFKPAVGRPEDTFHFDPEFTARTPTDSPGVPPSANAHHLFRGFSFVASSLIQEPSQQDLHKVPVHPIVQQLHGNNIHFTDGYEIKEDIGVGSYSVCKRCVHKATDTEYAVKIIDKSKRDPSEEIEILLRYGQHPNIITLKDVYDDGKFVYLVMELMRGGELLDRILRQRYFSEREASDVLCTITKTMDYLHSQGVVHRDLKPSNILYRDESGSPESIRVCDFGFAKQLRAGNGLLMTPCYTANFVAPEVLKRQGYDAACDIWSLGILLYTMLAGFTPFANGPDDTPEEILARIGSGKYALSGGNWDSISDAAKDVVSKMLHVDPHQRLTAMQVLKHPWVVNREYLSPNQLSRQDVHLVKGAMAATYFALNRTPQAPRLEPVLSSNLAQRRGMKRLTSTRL
Chain of UniProt P04049 (whole entry, looked up): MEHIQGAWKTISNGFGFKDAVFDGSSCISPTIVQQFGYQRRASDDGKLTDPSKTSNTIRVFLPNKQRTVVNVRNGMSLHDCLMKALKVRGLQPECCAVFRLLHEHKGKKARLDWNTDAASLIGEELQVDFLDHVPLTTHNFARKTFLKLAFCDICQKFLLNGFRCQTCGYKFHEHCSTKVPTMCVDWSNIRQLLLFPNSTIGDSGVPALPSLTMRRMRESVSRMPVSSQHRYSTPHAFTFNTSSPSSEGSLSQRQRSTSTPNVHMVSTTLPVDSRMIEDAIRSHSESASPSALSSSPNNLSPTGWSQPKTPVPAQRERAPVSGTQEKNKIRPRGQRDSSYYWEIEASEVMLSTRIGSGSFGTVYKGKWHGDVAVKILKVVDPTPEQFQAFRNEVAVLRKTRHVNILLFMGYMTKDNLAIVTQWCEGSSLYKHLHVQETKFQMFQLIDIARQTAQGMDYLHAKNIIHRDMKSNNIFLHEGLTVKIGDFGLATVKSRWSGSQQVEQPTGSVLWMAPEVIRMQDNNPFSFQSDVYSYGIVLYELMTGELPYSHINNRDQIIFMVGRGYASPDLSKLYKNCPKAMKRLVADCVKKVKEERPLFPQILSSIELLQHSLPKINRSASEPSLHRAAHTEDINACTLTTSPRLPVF
Chain of UniProt P49841 (whole entry, looked up): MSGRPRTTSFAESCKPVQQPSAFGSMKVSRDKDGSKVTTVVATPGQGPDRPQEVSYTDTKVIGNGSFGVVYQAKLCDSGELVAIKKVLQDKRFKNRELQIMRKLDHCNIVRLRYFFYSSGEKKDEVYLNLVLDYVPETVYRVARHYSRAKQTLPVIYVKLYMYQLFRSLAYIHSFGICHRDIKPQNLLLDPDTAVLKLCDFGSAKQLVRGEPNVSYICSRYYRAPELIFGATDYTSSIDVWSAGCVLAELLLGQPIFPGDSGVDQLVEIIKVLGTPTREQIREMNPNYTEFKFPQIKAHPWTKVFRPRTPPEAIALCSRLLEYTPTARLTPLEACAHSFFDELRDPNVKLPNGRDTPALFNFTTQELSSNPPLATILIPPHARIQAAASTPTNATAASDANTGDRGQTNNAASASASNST
Chain of UniProt Q86YV6 (whole entry, looked up): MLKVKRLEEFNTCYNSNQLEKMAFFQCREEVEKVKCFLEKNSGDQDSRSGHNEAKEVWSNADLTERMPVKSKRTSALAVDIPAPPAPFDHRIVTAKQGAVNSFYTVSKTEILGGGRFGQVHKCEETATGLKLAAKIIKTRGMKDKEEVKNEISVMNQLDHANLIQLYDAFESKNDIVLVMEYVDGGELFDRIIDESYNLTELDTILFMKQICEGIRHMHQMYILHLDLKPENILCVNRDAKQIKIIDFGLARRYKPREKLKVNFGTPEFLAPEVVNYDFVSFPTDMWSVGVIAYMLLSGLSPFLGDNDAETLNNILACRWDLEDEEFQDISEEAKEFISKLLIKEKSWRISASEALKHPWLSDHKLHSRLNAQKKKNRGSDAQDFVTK
Chain of UniProt Q00532 (whole entry, looked up): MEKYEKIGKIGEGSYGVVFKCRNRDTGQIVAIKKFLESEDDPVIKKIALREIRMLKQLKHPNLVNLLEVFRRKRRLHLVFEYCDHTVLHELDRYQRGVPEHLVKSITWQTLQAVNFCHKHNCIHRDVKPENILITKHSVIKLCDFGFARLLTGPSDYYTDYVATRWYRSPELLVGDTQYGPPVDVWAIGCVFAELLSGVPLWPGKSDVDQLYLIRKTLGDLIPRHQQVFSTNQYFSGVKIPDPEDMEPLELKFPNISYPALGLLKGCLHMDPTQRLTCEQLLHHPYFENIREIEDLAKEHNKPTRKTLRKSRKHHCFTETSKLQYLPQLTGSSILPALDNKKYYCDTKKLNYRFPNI
Chain of UniProt P42681 (whole entry, looked up): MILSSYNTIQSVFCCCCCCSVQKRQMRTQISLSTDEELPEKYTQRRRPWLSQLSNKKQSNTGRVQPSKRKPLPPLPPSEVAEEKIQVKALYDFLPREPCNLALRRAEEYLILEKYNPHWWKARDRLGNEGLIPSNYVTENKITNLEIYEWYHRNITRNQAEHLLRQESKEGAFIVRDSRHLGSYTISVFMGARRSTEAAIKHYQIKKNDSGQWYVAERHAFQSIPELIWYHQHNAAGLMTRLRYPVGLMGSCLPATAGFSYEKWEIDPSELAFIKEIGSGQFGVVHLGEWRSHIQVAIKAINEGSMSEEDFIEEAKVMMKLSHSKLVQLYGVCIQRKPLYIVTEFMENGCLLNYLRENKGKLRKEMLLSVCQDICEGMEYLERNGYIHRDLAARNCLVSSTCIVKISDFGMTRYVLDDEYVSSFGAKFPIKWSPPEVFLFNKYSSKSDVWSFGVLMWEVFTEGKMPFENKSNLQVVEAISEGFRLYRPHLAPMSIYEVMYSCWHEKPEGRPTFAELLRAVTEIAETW

Study 1
Structure (SMILES): O=c1nc(-c2ccccn2)sc2ccccc12
Concentration: 1 µM
The remaining binding was 100% (HASPIN (Homo sapiens, UniProt Q8TF76); cell-free assay, competition with immobilised ligand).
For CDK19 (Homo sapiens, UniProt Q9BWU1); competition binding: remaining binding read 86%.
For PDPK1 (Homo sapiens, UniProt O15530); binding, competition with immobilised ligand: remaining binding read 100%.
For MAP3K9 (Homo sapiens, UniProt P80192); binding, competition with immobilised ligand: remaining binding read 85%.
It gave 87% for remaining binding (CDKL1 (Homo sapiens, UniProt Q00532); binding, competition with immobilised ligand).
The remaining binding was 100% (MAP3K13 (Homo sapiens, UniProt O43283); binding, competition with immobilised ligand).
For STK38 (Homo sapiens, UniProt Q15208); binding, competition with immobilised ligand: remaining binding read 76%.
It gave 95% for remaining binding (PLK2 (Homo sapiens, UniProt Q9NYY3); binding, competition with immobilised ligand).
EGFR (Homo sapiens, UniProt P00533, L858R); cell-free assay, competition with immobilised ligand — remaining binding: 81%.
It gave 100% for remaining binding (RAF1 (Homo sapiens, UniProt P04049); binding, competition with immobilised ligand).
It gave 94% for remaining binding (HCK (Homo sapiens, UniProt P08631); cell-free assay, competition with immobilised ligand).
CHUK (Homo sapiens, UniProt O15111); cell-free assay, competition with immobilised ligand — remaining binding: 100%.
It gave 100% for remaining binding (SBK1 (Homo sapiens, UniProt Q52WX2); binding, competition with immobilised ligand).
MYLK4 (Homo sapiens, UniProt Q86YV6); cell-free assay, competition with immobilised ligand — remaining binding: 87%.
The remaining binding was 100% (BMPR2 (Homo sapiens, UniProt Q13873); cell-free assay, competition with immobilised ligand).
The remaining binding was 81% (TXK (Homo sapiens, UniProt P42681); binding, competition with immobilised ligand).
The remaining binding was 100% (ERN1 (Homo sapiens, UniProt O75460); cell-free assay, competition with immobilised ligand).
It gave 74% for remaining binding (EGFR (Homo sapiens, UniProt P00533, del747-750/T751S); cell-free assay, competition with immobilised ligand).
CSNK1A1L (Homo sapiens, UniProt Q8N752); cell-free assay, competition with immobilised ligand — remaining binding: 100%.
It gave 100% for remaining binding (MET (Homo sapiens, UniProt P08581, Y1235D); cell-free assay, competition with immobilised ligand).
The remaining binding was 100% (CHEK2 (Homo sapiens, UniProt O96017); binding, competition with immobilised ligand).
EPHA7 (Homo sapiens, UniProt Q15375); cell-free assay, competition with immobilised ligand — remaining binding: 80%.
The remaining binding was 100% (CAMK1G (Homo sapiens, UniProt Q96NX5); binding, competition with immobilised ligand).
GSK3B (Homo sapiens, UniProt P49841); cell-free assay, competition with immobilised ligand — remaining binding: 74%.
For CDC42BPB (Homo sapiens, UniProt Q9Y5S2); cell-free assay, competition with immobilised ligand: remaining binding read 100%.

Study 2
Technique: PRP chromatography estimate
Sample: 1,9-decadiene/PBS
pH: 7.4
For `CC(C)C[C@@H]1NC(=O)[C@@H](C)NC(=O)[C@@H](CC(C)C)NC(=O)[C@@H](CC(C)C)NC(=O)[C@H](C)NC(=O)[C@H](CC(C)C)NC(=O)[C@@H](CC(C)C)NC1=O`, the logD was -0.0349.
`CC(C)C[C@@H]1NC(=O)[C@H](Cc2cscn2)NC(=O)[C@H](CCC(=O)N2CCCC2)NC(=O)[C@H](C)NC(=O)[C@@H](CCC(=O)N2CCCC2)NC(=O)[C@H](CC(C)C)NC(=O)[C@@H](CC(C)C)NC1=O` has a logD of -2.71.
The logD of `CC(C)C[C@@H]1NC(=O)[C@H](CCC(=O)N2CCCC2)NC(=O)[C@H](CC(C)C)NC(=O)[C@@H](Cc2cscn2)NC(=O)[C@H](CC(C)C)NC(=O)[C@@H](CC(C)C)NC(=O)[C@H](CC(C)C)NC1=O` is reported as 0.0148.
`CC(C)C[C@@H]1NC(=O)[C@H](CC(C)C)NC(=O)[C@@H](CC(C)C)NC(=O)[C@H](C)NC(=O)[C@@H](Cc2cscn2)NC(=O)[C@@H](CC(C)C)NC(=O)[C@H](C)NC1=O` has a logD of -1.19.
With `CC(C)C[C@@H]1NC(=O)[C@H](CCC(=O)N2CCCC2)NC(=O)[C@H](CCC(=O)N2CCCC2)NC(=O)[C@@H](Cc2cscn2)NC(=O)[C@H](CC(C)C)NC(=O)[C@@H](CC(C)C)NC(=O)[C@H](CC(C)C)NC1=O` the logD was -1.22.
With `CCC[C@@H]1NC(=O)CSC[C@@H](C(=O)OCC)N(C)C(=O)[C@H](CC(C)C)NC(=O)[C@H](C)N(C)C(=O)[C@H](CC(C)C)NC(=O)[C@H](C)N(C)C(=O)[C@H]2CCCN2C(=O)[C@@H](CC(C)C)NC(=O)CN(CCC)C1=O` the logD was 0.982.
With `CC(C)C[C@@H]1NC(=O)[C@@H](C)NC(=O)[C@@H](CC(C)C)NC(=O)[C@H](C)NC(=O)[C@H](C)NC(=O)[C@H](CC(C)C)NC(=O)[C@@H](CC(C)C)NC1=O` the logD was -1.86.

Study 3
Compound: O=C(Nc1cnn(-c2csc(C(=O)NC3COC3)c2)c1)Nc1ccccc1Cl
Concentration: 5 µM
The remaining activity was 110% (HASPIN (Homo sapiens, UniProt Q8TF76); enzyme activity; relative to: untreated control).
It gave 93.1% for remaining activity (Tyrosine-protein kinase Lyn, isoform B (LYN, Homo sapiens, UniProt P07948); kinase activity, kinase panel profiling).
HCK (Homo sapiens, UniProt P08631); enzyme activity; relative to: untreated control — remaining activity: 89.7%.
For MAK (Homo sapiens, UniProt P20794); enzyme activity; relative to: untreated control: remaining activity read 98.6%.
RPS6KA2 (Homo sapiens, UniProt Q15349); enzyme activity; relative to: untreated control — remaining activity: 102%.

Study 4
Host: mouse
Sample: microsomes or S9
Concentration: 2 µM
Time: 0.5 h
With `CC(C)COc1ccc(Cc2cnc(N)nc2N)cc1` the remaining compound was 5.34%.
For `CC(=O)N(Cc1ccc(F)cc1)c1ccsc1C(=O)O`, the remaining compound was 92.2%.
`CNC(=O)CC1CCOC2(CCN(C(=O)C3CCC3)CC2)C1` (centres unmarked) gave a remaining compound of 95.6%.
`Nc1cccc(Nc2nc(Cl)nc3[nH]ccc23)c1` gave a remaining compound of 15.9%.
For `O=C(C1CCc2n[nH]c(=O)n2C1)N1CCc2ccc(F)c(F)c2C1` (centres unmarked), the remaining compound was 79.5%.

Study 5
Target: Calcium/calmodulin-dependent protein kinase type II subunit alpha (CAMK2A, Homo sapiens, UniProt Q9UQM7)
Chain of UniProt Q9UQM7 (whole entry, looked up): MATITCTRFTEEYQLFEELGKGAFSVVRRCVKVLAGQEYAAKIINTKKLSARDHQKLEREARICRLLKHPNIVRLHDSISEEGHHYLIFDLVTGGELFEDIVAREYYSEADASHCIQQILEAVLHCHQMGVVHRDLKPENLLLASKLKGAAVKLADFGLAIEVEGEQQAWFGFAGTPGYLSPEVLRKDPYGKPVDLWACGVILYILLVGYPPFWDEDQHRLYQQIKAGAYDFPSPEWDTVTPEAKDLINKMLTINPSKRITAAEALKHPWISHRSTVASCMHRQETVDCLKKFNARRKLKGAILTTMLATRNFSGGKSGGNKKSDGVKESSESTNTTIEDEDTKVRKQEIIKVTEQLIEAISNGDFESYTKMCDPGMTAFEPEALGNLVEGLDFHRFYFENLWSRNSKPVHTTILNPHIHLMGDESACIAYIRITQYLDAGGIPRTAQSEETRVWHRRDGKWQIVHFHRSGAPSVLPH
Effect on: enzyme activity
Mode: inhibitor
Concentration: 10 µM
For `CC(C)(C)[C@H](NC(=O)C(F)(F)F)C(=O)N1C[C@H]2[C@@H]([C@H]1C(=O)N[C@H](C#N)C[C@@H]1CCNC1=O)C2(C)C`, the inhibition was -1%.
For `O=C1C=C2C=C[C@@H](O)[C@H](O)[C@H]2O1`, the inhibition was -20%.
`CC(=O)N[C@@H](CC(C)C)C(=O)O` gave an inhibition of -19%.
For `c1ccc(CN(CC2=NCCN2)c2ccccc2)cc1`, the inhibition was -10%.
The inhibition of `Cc1ccc(/C(=C\CN2CCCC2)c2ccccn2)cc1` is reported as -4%.
`CCN(CC)CCOC(=O)C(c1ccccc1)c1ccccc1` has an inhibition of -10%.
For `NC(Cc1ccc(O)c(O)c1)C(=O)O` (racemic), the inhibition was -5%.
With `OC[C@H]1O[C@@](CO)(OC[C@@]2(OC[C@@]3(OC[C@@]4(OC[C@@]5(O[C@H]6O[C@H](CO)[C@@H](O)[C@H](O)[C@H]6O)O[C@H](CO)[C@@H](O)[C@@H]5O)O[C@H](CO)[C@@H](O)[C@@H]4O)O[C@H](CO)[C@@H](O)[C@@H]3O)O[C@H](CO)[C@@H](O)[C@@H]2O)[C@@H](O)[C@@H]1O` the inhibition was 20%.
